{"data": "Measurements collected from several papers", "note": "Every numbered part comes from another study and shows a few of its results, in no order. Substitutions count along the parent as printed."}
{"data": "Study 1", "target": "ABI1, truncated, D143A, DHFR fusion (Arabidopsis thaliana)", "technique": "DHFR PCA, deep sequencing", "matrix": "yeast", "notes": "methotrexate growth selection, single substitutions", "added": "(+)-ABA 200 µM", "reference": "wild-type fitted maximum", "reading": "higher = stronger binding", "parent": "PYL1, truncated, DHFR fusion (Arabidopsis thaliana); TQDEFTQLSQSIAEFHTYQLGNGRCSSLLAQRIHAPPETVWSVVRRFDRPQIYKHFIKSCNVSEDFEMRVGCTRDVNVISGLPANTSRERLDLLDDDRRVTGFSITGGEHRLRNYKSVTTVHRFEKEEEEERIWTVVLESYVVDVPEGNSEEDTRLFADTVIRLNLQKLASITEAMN"}
{"Substitution": "I105G", "relative binding score": "4.75%"}
{"Substitution": "R49P", "relative binding score": "-9.01%"}
{"Substitution": "V70I", "relative binding score": "99.5%"}
{"Substitution": "G21P", "relative binding score": "96.5%"}
{"Substitution": "W134C", "relative binding score": "106%"}
{"Substitution": "L29R", "relative binding score": "78.4%"}
{"Substitution": "R45Q", "relative binding score": "32%"}
{"Substitution": "E131A", "relative binding score": "108%"}
{"Substitution": "H122E", "relative binding score": "77.2%"}
{"Substitution": "Y115T", "relative binding score": "1.41%"}
{"Substitution": "D95I", "relative binding score": "78.8%"}
{"Substitution": "T106S", "relative binding score": "82.2%"}
{"Substitution": "E67G", "relative binding score": "94.2%"}
{"Substitution": "T6R", "relative binding score": "104%"}
{"Substitution": "G71Q", "relative binding score": "45.2%"}
{"Substitution": "Y141K", "relative binding score": "-5.25%"}
{"Substitution": "V40L", "relative binding score": "2.76%"}
{"Substitution": "M68L", "relative binding score": "106%"}
{"Substitution": "S80R", "relative binding score": "49.1%"}
{"Substitution": "C60R", "relative binding score": "13.8%"}
{"Substitution": "S26W", "relative binding score": "89.4%"}
{"Substitution": "E127M", "relative binding score": "104%"}
{"Substitution": "S87Q", "relative binding score": "4.33%"}
{"Substitution": "K58P", "relative binding score": "12%"}
{"data": "Study 2", "target": "RING finger protein unkempt homolog, zinc fingers 1-6, GST-SBP tag (UNK, Homo sapiens, UniProt Q9C0B0, residues 30-357)", "technique": "RNA Bind-n-Seq", "form": "RNA", "matrix": "in vitro", "tested at": "not given", "notes": "RNA with constant flanks, human-mouse chimeric sites, ends assumed", "reference": "input RNA pool", "reading": "higher = stronger binding", "Residues (chain)": "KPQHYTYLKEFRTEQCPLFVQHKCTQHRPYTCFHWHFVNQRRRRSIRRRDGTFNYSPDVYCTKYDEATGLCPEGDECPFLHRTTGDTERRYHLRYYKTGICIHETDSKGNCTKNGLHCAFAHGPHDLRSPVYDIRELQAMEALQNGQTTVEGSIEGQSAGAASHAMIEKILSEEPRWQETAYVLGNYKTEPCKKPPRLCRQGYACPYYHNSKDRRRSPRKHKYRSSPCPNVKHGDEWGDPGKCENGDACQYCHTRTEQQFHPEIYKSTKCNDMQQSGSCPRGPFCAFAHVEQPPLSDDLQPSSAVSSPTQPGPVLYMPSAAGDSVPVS"}
{"Sequence": "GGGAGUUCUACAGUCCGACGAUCUGUAGUUUCUUGAUUUAUCAUUUUUCUCUUUUCUUUCUUUCCUUUAGGAAAAGCCUAAAGAUUAGACUGUAAGAAAAGAAAAUAGAAUGUUUCGAAGACCUGUGUUACAGGUAUUUCGUCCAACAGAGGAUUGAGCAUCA", "bound/input enrichment": "0.469 ratio"}
{"Sequence": "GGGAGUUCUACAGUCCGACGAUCAGAGAUAAAGCAUCUAGGAACAUGCGAGGCUCCCGGAUGAAUGGGUUGCCUAGCCCCACUCACAGCGCCCACUGUAGCUUCUACCGAACCAGAACCUUGCAGGCACUAAGUAAUGAGAAGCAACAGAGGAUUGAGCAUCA", "bound/input enrichment": "0.134 ratio"}
{"Sequence": "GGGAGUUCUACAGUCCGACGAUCCUGUGUGUGCUGAAUAAUGAUUUGUGAAGAACUGUCCUCCAAGCUGUAACCCAUGCUGUUAUUAUAGUUGCUGCAAAAUGUUCUUCCUGAUAUUGAUUUUAUUUGUUAACUGAAGGUCUCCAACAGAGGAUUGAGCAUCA", "bound/input enrichment": "0.399 ratio"}
{"Sequence": "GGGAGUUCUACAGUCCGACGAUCCUGGCCUUCUGAGCAUCAGGGGCCUCCUUUCGUAUAGUCACUGCUUCUGCUACGGAUACUUUCAGCUGCAACUCCCUACUGGGUGGGGCACCCAUUUCAGGCAGAAGGUUUUGGUACCCUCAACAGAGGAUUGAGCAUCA", "bound/input enrichment": "0.189 ratio"}
{"Sequence": "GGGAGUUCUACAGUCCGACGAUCUGUAGUUUCUUGAUUUAUCAUUUUUCUUGCUCGGGUUUUUCCUUUAGGAAAAGCCUAAAGAUUAGGUUGUAAGAAAAACAGAAGCCAUGUUUCGAAGACCUGUGUUAAUUACAGGUAGUCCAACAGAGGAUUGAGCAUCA", "bound/input enrichment": "0.21 ratio"}
{"Sequence": "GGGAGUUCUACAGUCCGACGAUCGGCUGCUGGUGACUGUCCUGGAGUGGCUGGAGUUCCCCCGGAACCUGGGCCAGACUAAUUUUAGAAAAUGCCAAGUAGGAAGUUUGUUGAGGGUGAAGUGGUCAGAGGCCGAUGGCCUGGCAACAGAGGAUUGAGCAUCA", "bound/input enrichment": "4.27 ratio"}
{"Sequence": "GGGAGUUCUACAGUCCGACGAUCUUCAAAGAAAAGGGCAGCUGUGUCAUUUCAUAAGUAACUCUGGGGGAGGGAAAUUCUGUUCUUUUGUUUAAUUUUCCCCCAAAUGAAACCAACAUGCGUGUUGAAGAAGGAAGAAUGAAUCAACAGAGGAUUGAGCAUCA", "bound/input enrichment": "0.21 ratio"}
{"Sequence": "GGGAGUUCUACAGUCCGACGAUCUACAUCACCAAUGUCCUACAAAAUCCUGACUUGGCUCUGAGAAUGGCUGUGCGGAACAACUUAGCUGGUGCUGAAGAACUCUUUGCCCGGAAAUUUAAUGCUCUUUUCGCCCAGGGAAACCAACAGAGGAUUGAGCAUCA", "bound/input enrichment": "0.2 ratio"}
{"Sequence": "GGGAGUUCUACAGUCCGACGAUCGGAAGUACAAUGAUGGAGAUUGAUGGUGACAAAGGCAAGCAGGGCGGGCCCACCUACUACAUAGAUACCAAUGCCCUCCGCGUGCCCAGGGAGAAUAUGGAGGCCAUCUCACCACUCAAGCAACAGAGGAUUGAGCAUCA", "bound/input enrichment": "0.263 ratio"}
{"Sequence": "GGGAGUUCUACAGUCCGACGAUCGUUGCCAGGUUCCGGUGCCGUUGGGCUCGGUUCUCUCAGUGCUACGUUGUCUCUACGCUCUCAAUCCGCCAUCCAACAAACAUGGAUCAGGUAAUGCAGUUUGUGGAGCCCAGCCGGCAGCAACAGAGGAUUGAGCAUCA", "bound/input enrichment": "0.112 ratio"}
{"Sequence": "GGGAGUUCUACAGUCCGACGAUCGUGCCCUUCUCGCUGCUGCGGAGCCCGCCCAGCUGGGCAUUCCGGGACUGGUACCCUGCACACAGCCGCCUCUUCGAUCAAGCUUUCGGGGUGCCCCGGUUGCCCGAGGAGUGGUCGCAGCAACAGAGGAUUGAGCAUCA", "bound/input enrichment": "0.065 ratio"}
{"data": "Study 3", "target": "CCNE2, cyclin fold, Cln2 fusion (human)", "technique": "yeast growth competition, sequencing", "matrix": "yeast", "notes": "strong parent motif", "reference": "not given", "reading": "higher = stronger binding", "parent": "SCAPER docking peptide (human); SNARRSLNFGGST"}
{"Substitution": "SNARESLNFGGST [R5E]", "normalised enrichment score": -0.0827}
{"Substitution": "SNCRRSLNFGGST [A3C]", "normalised enrichment score": 1.48}
{"Substitution": "STARRSLNFGGST [N2T]", "normalised enrichment score": 1.18}
{"Substitution": "SRARRSLNFGGST [N2R]", "normalised enrichment score": 1.68}
{"Substitution": "SNTRRSLNFGGST [A3T]", "normalised enrichment score": 0.933}
{"Substitution": "SNARNSLNFGGST [R5N]", "normalised enrichment score": -0.843}
{"Substitution": "SQARRSLNFGGST [N2Q]", "normalised enrichment score": 1.18}
{"Substitution": "SNGRRSLNFGGST [A3G]", "normalised enrichment score": 0.943}
{"Substitution": "ENARRSLNFGGST [S1E]", "normalised enrichment score": 0.496}
{"Substitution": "SNARRSLNFVGST [G10V]", "normalised enrichment score": 0.112}
{"Substitution": "SNARISLNFGGST [R5I]", "normalised enrichment score": 0.485}
{"Substitution": "WNARRSLNFGGST [S1W]", "normalised enrichment score": 1.61}
{"Substitution": "SNARRVLNFGGST [S6V]", "normalised enrichment score": 4.76}
{"Substitution": "SNARRSLNFGGVT [S12V]", "normalised enrichment score": 1.13}
{"Substitution": "SNARRSLNFGGQT [S12Q]", "normalised enrichment score": 0.916}
{"Substitution": "SNARRSLFFGGST [N8F]", "normalised enrichment score": 1.51}
{"Substitution": "SNARRSLNFGPST [G11P]", "normalised enrichment score": 0.855}
{"Substitution": "SNARRSLNFDGST [G10D]", "normalised enrichment score": 0.879}
{"Substitution": "SMARRSLNFGGST [N2M]", "normalised enrichment score": 0.261}
{"Substitution": "SNARRSLNFGRST [G11R]", "normalised enrichment score": 0.436}
{"Substitution": "SNAQRSLNFGGST [R4Q]", "normalised enrichment score": -0.239}
{"data": "Study 4", "Substance": "PhoQ, residues 284 288 289 292 302 303 GASLAW", "technique": "Sort-seq", "measured": "YFP reporter", "matrix": "E. coli", "notes": "PhoQ-PhoP variant library", "added": "10 µM Mg2+", "reference": "high Mg2+ state", "reading": "higher = stronger signaling"}
{"target": "PhoP, residues 12 14 15 18 19 NFFVT (Escherichia coli, UniProt P23836)", "fold induction": 18}
{"target": "PhoP, residues 12 14 15 18 19 VGHWL (Escherichia coli, UniProt P23836)", "fold induction": 2.48}
{"target": "PhoP, residues 12 14 15 18 19 LHHYF (Escherichia coli, UniProt P23836)", "fold induction": 13.1}
{"target": "PhoP, residues 12 14 15 18 19 TPWTL (Escherichia coli, UniProt P23836)", "fold induction": 0.584}
{"note": "Excerpt of the above (study 1):"}
{"Substitution": "R49P", "relative binding score": "-9.01%"}
{"Substitution": "V70I", "relative binding score": "99.5%"}
{"Substitution": "G21P", "relative binding score": "96.5%"}
{"Substitution": "W134C", "relative binding score": "106%"}
{"Substitution": "L29R", "relative binding score": "78.4%"}
